Results from different studies.
Each numbered part is a random draw from the data of one study; scales do not carry over between parts. Substitutions count along the parent as printed.

Study 1
Target: Fragile X messenger ribonucleoprotein 1, C-terminal low-complexity region (Fmr1, Mus musculus, UniProt P35922)
Technique: RNA Bind-n-Seq
Form: RNA
Medium: in vitro
Concentration: 200 nM
Setting: whole 134-nt RNA, ends assumed
With: 150 mM KCl
Relative to: input library
Direction: higher = stronger binding
Quantity: log2 enrichment
All sequences stand within: GGGAGUUCUACAGUCCGACGAUC … UGGAAUUCUCGGGUGUCAAGG
Sequence = UCCUGUGCUACACAUCGUAUGUACCGAAUCGGGUUUUUUGGGUUUUUUGGUUUUUUGGGAAAGUAUUAUGUUACGCCGUUCGGAUCUGCA; value = -0.109
Sequence = ACCAUGCAGGUGGGCAUCUUUGGGAAGUGGGGCAAGGGGGGGCUAGGGAGGGGGGUAACACUUUGGGAACAGGUGGUCCCAGGUCGUUUC; value = 0.834
Sequence = UGGGAGGUGGAUUUUGUUUAUUUUUUUAGCUCAUUUCCAGGGGUGGGAAUUUUUUUUUAAUAUGUGUCAUGAAUAAAGUUGAUUUUGAAA; value = 0.185
Sequence = CUGUGCUACACAUCGUAUGUACCGAAUCGGGGAAAAAAAGGGGUUUUUGGGGUUUUUGGGGAAAGUAUUAUGUUACGCCGUUCGGAUCUG; value = -0.035
Sequence = CUGUGCUACACAUCGUAUGUACCGAAUCGGGGUUUUUUUGGGUUUUUUUGGGGUUUUUUUGGAAAGUAUUAUGUUACGCCGUUCGGAUCU; value = -0.0698
Sequence = ACCAUGCAGGUGGGCAUCUUUGGGAAGUGGGGCAAGGGGGGUAUAGGGAGGGGGGUAACACUUUGGGAACAGGUGGUCCCAGGUCGUUUC; value = 0.654
Sequence = UAACUUUAGAGGAGGAUCUAAUGGAUAUGGCAGUGGACGUGGAUUUGGGGAUGGCUAUAAUGGGUAUGGAGGAGGACCUGGAGGUGGCAA; value = 0.321
Sequence = AGUCCUGUGCUACACAUCGUAUGUACCGAAUCGGGUUUGGGUUUUUGGGAAAAAGGGAAAGUAUUAUGUUACGCCGUUCGGAUCUGCACU; value = 0.302
Sequence = CAAGUCCUGUGCUACACAUCGUAUGUACCGAAUCGGGAAAGGGAAAGGGGAAAGGAAAGUAUUAUGUUACGCCGUUCGGAUCUGCACUUC; value = -0.168

Study 2
Substance: PhoQ, residues 284 288 289 292 302 303 TNASYF
Technique: Sort-seq
Item: YFP reporter
Medium: E. coli
Setting: PhoQ-PhoP variant library
With: 10 µM Mg2+
Relative to: high Mg2+ state
Direction: higher = stronger signaling
Quantity: fold induction
target = PhoP, residues 12 14 15 18 19 STHWV (Escherichia coli, UniProt P23836); value = 7.24
target = PhoP, residues 12 14 15 18 19 QYCSL (Escherichia coli, UniProt P23836); value = 16.4
target = PhoP, residues 12 14 15 18 19 SHWTV (Escherichia coli, UniProt P23836); value = 1.31

Study 3
Target: CCNB1, cyclin fold, Cln2 fusion (human)
Technique: yeast growth competition, sequencing
Medium: yeast
Setting: strong parent motif
Relative to: not given
Direction: higher = stronger binding
Quantity: normalised enrichment score
Parent: PKN2 docking peptide (human); VSAVRKLDFSDTM; partner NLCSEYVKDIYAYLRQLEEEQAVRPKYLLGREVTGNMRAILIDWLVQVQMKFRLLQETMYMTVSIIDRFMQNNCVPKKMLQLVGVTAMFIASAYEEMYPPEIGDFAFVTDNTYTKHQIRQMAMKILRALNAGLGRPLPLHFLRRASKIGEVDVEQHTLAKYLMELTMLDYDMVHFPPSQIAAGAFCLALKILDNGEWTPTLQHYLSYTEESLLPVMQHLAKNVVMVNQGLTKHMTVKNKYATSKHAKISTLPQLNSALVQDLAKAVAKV
Substitution = F9G; value = 0.241
Substitution = D11L; value = 2.22
Substitution = T12C; value = 4.01
Substitution = L7Y; value = -0.0219
Substitution = A3N; value = 0.118
Substitution = V4R; value = 2.57
Substitution = V4T; value = 1.8
Substitution = L7P; value = 0.581
Substitution = A3D; value = 0.255
Substitution = S10E; value = 4.59
Substitution = F9S; value = 0.161
Substitution = F9C; value = 0.0128

Study 4
Target: Sal-like protein 4, full length isoform A (SALL4, Homo sapiens, UniProt Q9UJQ4, residues 1-1053)
Sequence of UniProt Q9UJQ4 (whole entry, looked up): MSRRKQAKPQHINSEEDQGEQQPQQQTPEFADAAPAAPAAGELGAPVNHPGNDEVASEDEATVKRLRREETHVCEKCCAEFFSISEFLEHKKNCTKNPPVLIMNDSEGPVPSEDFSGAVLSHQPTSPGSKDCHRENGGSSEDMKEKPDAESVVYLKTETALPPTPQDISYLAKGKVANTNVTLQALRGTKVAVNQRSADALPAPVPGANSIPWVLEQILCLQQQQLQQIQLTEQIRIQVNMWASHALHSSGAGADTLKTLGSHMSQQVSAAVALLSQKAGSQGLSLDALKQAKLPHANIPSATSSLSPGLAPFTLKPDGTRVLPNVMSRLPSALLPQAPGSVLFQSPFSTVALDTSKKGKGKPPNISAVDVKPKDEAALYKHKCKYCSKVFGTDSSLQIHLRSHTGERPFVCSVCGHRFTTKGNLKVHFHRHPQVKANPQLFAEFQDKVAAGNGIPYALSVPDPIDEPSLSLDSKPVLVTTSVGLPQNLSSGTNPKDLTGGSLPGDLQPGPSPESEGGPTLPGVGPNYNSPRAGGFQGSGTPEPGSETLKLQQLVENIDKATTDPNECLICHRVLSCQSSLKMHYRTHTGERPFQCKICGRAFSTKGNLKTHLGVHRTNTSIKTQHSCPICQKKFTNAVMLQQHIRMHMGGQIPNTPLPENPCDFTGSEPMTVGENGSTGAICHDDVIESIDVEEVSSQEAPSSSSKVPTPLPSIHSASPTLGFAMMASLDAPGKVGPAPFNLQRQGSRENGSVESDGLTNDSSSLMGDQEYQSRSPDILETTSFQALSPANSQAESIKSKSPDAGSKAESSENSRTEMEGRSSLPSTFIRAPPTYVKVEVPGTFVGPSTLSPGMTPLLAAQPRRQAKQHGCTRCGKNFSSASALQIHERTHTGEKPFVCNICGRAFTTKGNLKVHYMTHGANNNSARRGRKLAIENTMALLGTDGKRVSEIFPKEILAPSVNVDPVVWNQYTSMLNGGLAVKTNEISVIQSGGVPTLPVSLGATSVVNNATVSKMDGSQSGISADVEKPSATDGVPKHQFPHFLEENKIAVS
Technique: universal PBM
Form: double-stranded DNA, one strand shown
Medium: in vitro
Concentration: 600 nM
Setting: 8-mer, flanks averaged, mean of replicates
Direction: higher = stronger binding
Quantity: E-score
Sequence = GCGGCCAC; value = -0.347
Sequence = ATCGCAAT; value = 0.137
Sequence = AACGCAAG; value = -0.0166
Sequence = ACATGGGG; value = -0.145
Sequence = GCCAAGAA; value = -0.0784
Sequence = AACTTTGA; value = 0.127
Sequence = AGTGGAAG; value = -0.227
Sequence = AACAATTC; value = 0.152
Sequence = AGTGCACC; value = -0.0748
Sequence = TAAGGGTA; value = 0.0386
Sequence = CCGTCTCG; value = -0.165
Sequence = AAGTGACC; value = -0.269
Sequence = TGCGCGAA; value = 0.0539
Sequence = CTACATGA; value = 0.111
